Measurements gathered from unrelated publications.
Parts stem from different laboratories: compare values within a part only. Changes are numbered by the printed parent chain.

Set 1 — target: CCNF, cyclin fold, Cln2 fusion (human); method: yeast growth competition, sequencing; sample: yeast; setting: strong parent motif; relative to: not given; reading: higher = stronger binding; endpoint: normalised enrichment score
Starting sequence: PKMYT1 docking peptide (human); SFEPRNLLSLFED
SHEPRNLLSLFED [F2H]: 0.148
SFQPRNLLSLFED [E3Q]: 2.97
SFVPRNLLSLFED [E3V]: 2.76
SFEPSNLLSLFED [R5S]: -1.77
SFEPRNPLSLFED [L7P]: -0.809
SFEPRNLSSLFED [L8S]: -1.09
SFYPRNLLSLFED [E3Y]: 2.46
SFEPDNLLSLFED [R5D]: -0.838
SFEPRNLLSLFEW [D13W]: 1.39
SFEPRNLLSLIED [F11I]: -0.108
SFEPRNLLSMFED [L10M]: 0.647
SFEPANLLSLFED [R5A]: -0.791
PFEPRNLLSLFED [S1P]: 0.58
SFEPRNLASLFED [L8A]: 0.333
SQEPRNLLSLFED [F2Q]: 1.12
SFEPRNLLSQFED [L10Q]: 0.602

Set 2 — target: ATF5, bZIP domain (human); method: DHFR protein complementation; sample: yeast; relative to: wild-type JUN-FOS pair; reading: higher = stronger binding; endpoint: binding fitness
Setting: single substitutions, most at no-binding floor
Starting sequence: JUN, bZIP domain (human); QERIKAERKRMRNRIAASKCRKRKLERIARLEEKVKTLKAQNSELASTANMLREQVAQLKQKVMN; partner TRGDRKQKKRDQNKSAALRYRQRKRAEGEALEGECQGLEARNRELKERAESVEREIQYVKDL
L52E: -1.49 natural log
A29G: -1.33 natural log
E33L: -1.25 natural log
M51H: -1.48 natural log
L38H: -1.51 natural log
R53M: -1.46 natural log
A40D: -1.55 natural log
K36E: -1.56 natural log
A49T: -1.3 natural log
A49C: -1.52 natural log
Q41P: -1.57 natural log
K39Y: -1.58 natural log
A46V: -1.5 natural log
M51D: -1.22 natural log

Set 3 — method: competition protein-binding microarray; form: double-stranded DNA, one strand shown; sample: in vitro; tested at: 2 µM; with: Cbf1 competitor, 0.05 µM; reading: higher = stronger binding; endpoint: fluorescence intensity; all sequences stand within: … GTCTTGATTCGCTTGACGCTGCTG
Target: Phosphate system positive regulatory protein PHO4, full length, GST-tagged (PHO4, Saccharomyces cerevisiae, UniProt P07270, residues 1-312)
Setting: whole 60-bp probe, lowest competitor level
Target sequence (chain): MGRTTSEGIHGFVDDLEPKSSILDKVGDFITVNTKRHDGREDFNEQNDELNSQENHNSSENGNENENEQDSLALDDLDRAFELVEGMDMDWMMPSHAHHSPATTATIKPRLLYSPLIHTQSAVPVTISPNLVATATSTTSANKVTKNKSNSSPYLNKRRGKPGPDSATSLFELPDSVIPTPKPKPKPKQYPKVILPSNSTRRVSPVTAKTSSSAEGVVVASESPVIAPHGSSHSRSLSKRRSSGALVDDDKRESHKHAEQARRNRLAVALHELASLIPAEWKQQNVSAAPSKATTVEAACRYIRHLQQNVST
GTCTTGTCTCATTGTTGCGTGGGTGTCCCCACTTCA: 7340 a.u.
AAATTACTAAGTTGTAACGTGGGTGACGCCGTATGA: 10500 a.u.
TCTTCTTTGCCACATCACCTGACGCACCAAAGACAG: 5440 a.u.
TTTTCCGCCGCAATTTTCGTGACGGATGTCGTTCAG: 3520 a.u.
CTTGCATGGGTGGTGCCCGTGGAGGACGCTCCTAGT: 7440 a.u.
CGACTTCAGCCAAATAACGTGGAGGCTCTGGAACAA: 8480 a.u.
CATACCCAACCTTGTAGGGTGGGTGAAGATATTTGT: 4330 a.u.
CTAACGAAGGTTTGCTACGTGGGTGACAAGCCAAGT: 7450 a.u.
TGCGCAACAACTTGTCACTCAACTTTATGTCTAGAA: 3920 a.u.
AAAGCGGTAATTTGAAGGGTGGGTGCAGATATCTAT: 4940 a.u.
GCATCAGTCGGTCAACATGCGCAGGATGTTCCGTTT: 7280 a.u.
CAGCCTCCATTCGGTAGCGTGCTGTATGTCAACAAA: 6980 a.u.
CGGGGTTAAGTTTGACACGTGTTTTGCTTGCAGCAG: 17300 a.u.
CGGGGTTAAGTTTCTCACGTGTTTTGCTTGCAGCAG: 13100 a.u.
CATACCCAACCTTGTGCTGTGGGTGAAGATATTTGT: 7290 a.u.
CGTCCTAGCGATTGAAATGTGGGTGCCATGAGGAAG: 7650 a.u.
CAATGTTTTTAAAAGCACGTGACTCGAATGTTACCC: 17800 a.u.

Set 4 — target: UBE2E2 UBC core domain (UniProt Q96LR5); method: yeast two-hybrid; sample: yeast; setting: mostly zero background; relative to: not given; reading: higher = stronger interaction; endpoint: lacZ reporter activity
Sequence of UniProt Q96LR5 (whole entry, looked up): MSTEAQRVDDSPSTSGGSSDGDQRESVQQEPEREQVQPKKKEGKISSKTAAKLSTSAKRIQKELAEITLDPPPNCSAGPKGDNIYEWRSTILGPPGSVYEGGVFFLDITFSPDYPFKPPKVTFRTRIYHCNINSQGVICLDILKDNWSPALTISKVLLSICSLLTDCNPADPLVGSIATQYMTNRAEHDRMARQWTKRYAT
B1: TRIM8 RING domain (UniProt Q9BZR9); chain WKNCFEEELICPICLHVFVEPVQLPCKHNFCRGCIGEAWAKDSGLVRCPECNQAYNQKPGLE
B2: IRF2BPL RING domain (UniProt Q9H1B7); chain SPMANSGPLCCTICHERLEDTHFVQCPSVPSHKFCFPCSRESIKAQGATGEVYCPSGEKCPLVGSNVP
B3: TRIM69 RING domain (UniProt Q86WT6); chain VIQDITMELHCPLCNDWFRDPLMLSCGHNFCEACIQDFWRLQAKETFCPECKMLCQYNNCTF
B1 (TRIM8 RING domain): 0
B2 (IRF2BPL RING domain): 0
B3 (TRIM69 RING domain): 0
VTLSLTLPITCHICLGKVRQPVICINNHVFCSICIDLWLKNNSQCPACRVPITPENPCK (OBI1 RING domain (UniProt Q5W0B1)): 0
YWAMDSTFELCKICAESNKDVKIEPCGHLLCSCCLAAWQHSDSQTCPFCRCEIKGWEAVS (CBLC RING domain (UniProt Q9ULV8)): 0
PEELQAMDNVCIICREEMVTGAKRLPCNHIFHTSCLRSWFQRQQTCPTCRMDVLRASLPA (SYVN1 RING domain (UniProt Q86TM6)): 0
FPEHFVKSISCQICEHILADPVETNCKHVFCRVCILRCLKVMGSYCPSCRYPCFPTDLES (RAG1 RING domain (UniProt P15918)): 0

Excerpt of the above (set 2):
R53M: -1.46 natural log
A40D: -1.55 natural log
K36E: -1.56 natural log
A49T: -1.3 natural log
A49C: -1.52 natural log
Q41P: -1.57 natural log
K39Y: -1.58 natural log
A46V: -1.5 natural log
M51D: -1.22 natural log
